Assay results collected from several papers.
Parts stem from different laboratories: compare values within a part only. Changes are numbered by the printed parent chain.

Block 1 — technique: RNA Bind-n-Seq; form: RNA; matrix: in vitro; tested at: 365 nM; relative to: no-protein control; direction: higher = stronger binding
Target: RNA binding protein fox-1 homolog 2, RRM domain, GST-SBP tag (RBFOX2, Homo sapiens, UniProt O43251-10, residues 100-194)
Setting: natural RNA segment, single round, ends assumed
Shared flanks, not repeated: GGGAGUUCUACAGUCCGACGAUC … UGGAAUUCUCGGGUGCCAA
Target sequence (chain): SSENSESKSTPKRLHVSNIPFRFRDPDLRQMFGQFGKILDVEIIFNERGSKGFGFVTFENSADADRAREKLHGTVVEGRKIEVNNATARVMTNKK
Strand	RBNS enrichment (R)
GAAAGAAGGUUGCCGCCUCGACUGCUUACCUUUGGAGAAAACCUGGAGUGGACUUCAGUGGGCAUUCGUGCUAAGUCACCCUCAUCGGUAAAAUACUGCAAAGAACUAAC	0.251
UGAUUUUAUAUAAAGAUUUGUGGGGAAAUAUCUUUAUAUUAAAAGCAGGUUAUUGGAAUAGAAUCCAAAAUCAUUUUCCAGCCAAAACAUCCAUUCGAAAUCUGUAUCCC	2.12
UGGAAGAAAUAUAUUUGCAUAUUGAAAAGCACAGAGGAUUUCUUUAGUGUCAUUGCCGAUUUUGGCUAUAACAGUGUCUUUCUAGCCAUAAUAAAAUAAAACAAAAUCUU	0.785
AAGCGAGGUUUCAUGACACAACCUUUCAUGUCGUGAAAGGCAGAGGGUGACUGUGUGUGAUGUGCAGAGUCCUUGGACAGGAGUCGGGGGCUCCUCUGUCCCACUGCUGC	0.493
AAAAAAAAAAAAAAACUUCCAUUCUUUCUUCCUCCAGUCUGUUCUCACAUAACAGAGUAGUUUUGGUUUUUAAUUUUUUUUGGUUGUUUGCUGUUUUUUGUUUUUUAAGG	1.51
GGAGUCGGGGGCCACAGGCCUCUAGCUGUGCUGCUCAAGAGACUGGAUCAGGGUAGCUACAAGUGGCCGGGCCUUGCCUUUGGGAUUCUACCUGUUCCUAAUUUGGUGUG	0.5
CCUGGUAUUGGGCAUGGAAAUUUGAAUUGCUGAUUGGUAGAUGGUGUGUCUGGACUUAACUCACGUAGUAAAUACUGCUGAUCAAUACCUAAUCAUUCCACAUUUAUUGA	0.884
UUCCUUAAUAAACAGAUUCAUUUAGUUAUUUCAUAUAGGCAUCAAUAUGCAUUUAGCUUUAGUUUACUGAACAGUAAACAUGCUUUUAUUUCUUGCUAUGAGAGUAUUUU	2.2

Block 2 — target: CCNF, cyclin fold, Cln2 fusion (human); technique: yeast growth competition, sequencing; matrix: yeast; setting: strong parent motif; relative to: not given; direction: higher = stronger binding
Parent: CDT1 docking peptide (human); PPARRRLRLSVDE
Variant	normalised enrichment score
PPARRRLRFSVDE [L9F]	8.16
PPARRRLRASVDE [L9A]	1.26
PPARKRLRLSVDE [R5K]	1.28
PPARRRLRLSADE [V11A]	8.57
PPARARARLSVDE [R5A L7A]	0.448
PPARRRLALSVDE [R8A]	7.37
PAARRRLRLSVDE [P2A]	7.68
PPARRRLRLAVDE [S10A]	7.51
PPARARLRLSVDE [R5A]	0.353

Block 3 — technique: protein binding microarray; form: double-stranded DNA, one strand shown; matrix: in vitro; tested at: not given; relative to: not given; direction: higher = stronger binding
Target: Histone acetyltransferase KAT6A, winged helix 2, GST fusion (KAT6A, Homo sapiens, UniProt Q92794, residues 85-181)
Setting: 8-mer, flanks averaged, mean of 2 arrays, mostly near background
Target sequence (chain): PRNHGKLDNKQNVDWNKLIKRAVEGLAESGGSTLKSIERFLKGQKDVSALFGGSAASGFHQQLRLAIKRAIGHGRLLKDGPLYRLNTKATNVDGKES
Strand	E-score
GGTGAGGA	0.147
ATCGTCTC	-0.262
CCGCGCAA	-0.0262
CTTGGCTA	-0.03
CCTACCCA	-0.203
ATCACTAA	-0.0608
AGACGCGG	0.077
AAGTCCAT	-0.286
AGCACTAT	-0.152
GCAGCTAC	0.174
CGCCCTGA	0.139
CGAGGGGC	0.0766
AAACAAGT	-0.069
ATGGTTCC	0.0547
ACTCATAA	-0.0772
ATCTCAGA	0.0273
CACTGGCC	0.106
AGCTGTAC	-0.0909
ATTTTAGC	0.092
ATCAGGCG	0.0226
CTTCCGAA	0.0661
AGCTAAAT	-0.0767
AATATTAG	-0.017
AAGAACTA	0.0646
CGGCCACG	0.131

Block 4 — technique: RNA Bind-n-Seq; form: RNA; matrix: in vitro; tested at: 100 nM; relative to: input RNA pool; direction: higher = stronger binding
Target: RING finger protein unkempt homolog, zinc fingers 1-6, SBP tag (UNK, Homo sapiens, UniProt Q9C0B0, residues 30-357)
UniProt Q9C0B0, sequence (30-357, looked up): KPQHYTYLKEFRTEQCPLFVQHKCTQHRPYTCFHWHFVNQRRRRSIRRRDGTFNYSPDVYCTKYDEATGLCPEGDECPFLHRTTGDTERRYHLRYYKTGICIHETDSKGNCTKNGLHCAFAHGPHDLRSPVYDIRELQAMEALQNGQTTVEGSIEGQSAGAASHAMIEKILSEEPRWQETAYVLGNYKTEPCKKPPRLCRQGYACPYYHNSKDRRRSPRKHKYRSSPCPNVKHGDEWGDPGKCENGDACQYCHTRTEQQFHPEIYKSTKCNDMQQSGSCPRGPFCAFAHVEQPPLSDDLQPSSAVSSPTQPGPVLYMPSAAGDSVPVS
Setting: RNA with constant flanks, vertebrate orthologous sites, ends assumed
Shared flanks, not repeated: GGGAGUUCUACAGUCCGACGAUC … CAACAGAGGAUUGAGCAUCA
Strand	bound/input enrichment [ratio]
UAUAAUUAUGAAAAUCUAAAGGAUUUUUAAUGUUUAAUUUCCCCUGGCAUAUUAAGACAUCUUUUUUCCAGGCAGAUCACUCAGUGUGUGAGUGUGUGUACACAUGUUACAAAGACAACU	0.144
UUCAGGCACAACUGACUGGUUCACAGCACUCCUUACAUAGUUAUCUGUCAAAUGCAAGUGUAGUUAAUUUUCAGGAAACAACCAGGCAGUCAUCUUUAUCCUGUAGCCCAAUUGGAGAUU	1.66
AUUUAAAAUGUAGUUAGUUAUAUUUAAUGACCUCAUUCCUAAGUUCCUUUUUCGUUAAUGUAGCUUUCAUUUCUGUUAUUGCUGUUUGAAUAAUAUGGUUAAAUAGAAGGUUUGUGCCAG	0.515
UUAUUCAGUCUUCCAUGUAGGGUCGGCCUCAGAUCUAUAGGAUUUAUGACAAAUGUAUUAUAUCUAGUUGAGUUUAAUAUUUUUUUAUUAGCCUGUAAAUAAAGAUGGCAUCUUCUACAU	0.753
CUUUUAAUCGACUAUGUCUGUAAAUGUAUAUUGAGAGAAUUGAAGUAUUUAUAAACAGAGUGAUUUAUUUAAGGAAAAGCUUAUCCCUCUUUCCUAAGGUGGUCUGUGUUAAUUCCAUUU	0.19
UUUUGUACAGGGAGGCCUUCUCUGUACUAAUUUGUUGUAGUUAUAAACCAAUUAGCAAAACAGCUUACAUUUGUAUUUAUUUUCUAUUGCAUACCUCUCUGCCCCAUGUUUUUCUCUUCA	0.559
CUCAUUUCCAGGUUGGACCUACUGGAAAAGUCGUAGGAAUUGACCACAUUAAAGAGCUGGUAGACGACUCAAUAAAUAACGUCAGAAAGGACGAUCCGAUGCUUCUGUCUUCAGGGAGAG	0.623
GCACAUGCCGCUAUCACCAAAAGCAAACUGCCACUUCUCAAAUUUCAUUCAAAGCUGUUUCAGUGUUUCUUAUGCCCUACCCUUCCCACCUACUUUCACUGAUGAGAUAUUCUAAGUUCU	1.05

Single results of other studies
Molecule	target	test	test system	setting	how to read	quantity	value
PhoQ, residues 284 288 289 292 302 303 ASASEQ	PhoP, residues 12 14 15 18 19 AYFRS (Escherichia coli, UniProt P23836)	Sort-seq, refers to: YFP reporter	E. coli	PhoQ-PhoP variant library, added: 10 µM Mg2+	relative to: high Mg2+ state, higher = stronger signaling	fold induction	7.55

Some of these lines once more (block 3):
Strand	E-score
ATCACTAA	-0.0608
AGACGCGG	0.077
AAGTCCAT	-0.286
AGCACTAT	-0.152
GCAGCTAC	0.174
